Results pooled from the literature.
Each line is one published result; not all experiments were run side by side. ± marks the error that the study gave.
USP16 ZnF-UBD domain: Ubiquitin carboxyl-terminal hydrolase 16, ZnF-UBD domain (USP16, Homo sapiens, UniProt Q9Y5T5)
Sequence of UniProt Q9Y5T5 (whole entry, looked up): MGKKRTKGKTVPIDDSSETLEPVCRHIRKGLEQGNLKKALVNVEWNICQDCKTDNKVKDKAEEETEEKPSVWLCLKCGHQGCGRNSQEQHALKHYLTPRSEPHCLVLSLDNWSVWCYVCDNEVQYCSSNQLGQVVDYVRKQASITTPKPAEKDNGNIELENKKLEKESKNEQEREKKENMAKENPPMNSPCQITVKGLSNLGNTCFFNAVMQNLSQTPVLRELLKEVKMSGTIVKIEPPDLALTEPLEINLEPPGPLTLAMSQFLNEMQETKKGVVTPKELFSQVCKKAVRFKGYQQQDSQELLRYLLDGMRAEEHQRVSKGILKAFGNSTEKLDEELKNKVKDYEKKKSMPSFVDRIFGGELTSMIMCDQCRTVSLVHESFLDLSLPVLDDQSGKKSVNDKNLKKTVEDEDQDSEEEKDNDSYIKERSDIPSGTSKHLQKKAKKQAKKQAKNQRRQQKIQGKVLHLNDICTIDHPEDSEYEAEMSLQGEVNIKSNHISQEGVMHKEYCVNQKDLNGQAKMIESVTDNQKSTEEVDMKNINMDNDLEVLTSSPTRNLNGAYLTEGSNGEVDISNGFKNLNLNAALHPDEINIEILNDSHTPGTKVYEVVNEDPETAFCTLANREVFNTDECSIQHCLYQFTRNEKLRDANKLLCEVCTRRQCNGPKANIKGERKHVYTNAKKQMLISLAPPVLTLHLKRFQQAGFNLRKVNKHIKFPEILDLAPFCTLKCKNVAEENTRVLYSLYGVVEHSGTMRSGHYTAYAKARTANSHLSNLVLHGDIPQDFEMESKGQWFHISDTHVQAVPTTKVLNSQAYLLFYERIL
KDM4B: Lysine-specific demethylase 4B (KDM4B, Homo sapiens, UniProt O94953)
Sequence of UniProt O94953 (whole entry, looked up): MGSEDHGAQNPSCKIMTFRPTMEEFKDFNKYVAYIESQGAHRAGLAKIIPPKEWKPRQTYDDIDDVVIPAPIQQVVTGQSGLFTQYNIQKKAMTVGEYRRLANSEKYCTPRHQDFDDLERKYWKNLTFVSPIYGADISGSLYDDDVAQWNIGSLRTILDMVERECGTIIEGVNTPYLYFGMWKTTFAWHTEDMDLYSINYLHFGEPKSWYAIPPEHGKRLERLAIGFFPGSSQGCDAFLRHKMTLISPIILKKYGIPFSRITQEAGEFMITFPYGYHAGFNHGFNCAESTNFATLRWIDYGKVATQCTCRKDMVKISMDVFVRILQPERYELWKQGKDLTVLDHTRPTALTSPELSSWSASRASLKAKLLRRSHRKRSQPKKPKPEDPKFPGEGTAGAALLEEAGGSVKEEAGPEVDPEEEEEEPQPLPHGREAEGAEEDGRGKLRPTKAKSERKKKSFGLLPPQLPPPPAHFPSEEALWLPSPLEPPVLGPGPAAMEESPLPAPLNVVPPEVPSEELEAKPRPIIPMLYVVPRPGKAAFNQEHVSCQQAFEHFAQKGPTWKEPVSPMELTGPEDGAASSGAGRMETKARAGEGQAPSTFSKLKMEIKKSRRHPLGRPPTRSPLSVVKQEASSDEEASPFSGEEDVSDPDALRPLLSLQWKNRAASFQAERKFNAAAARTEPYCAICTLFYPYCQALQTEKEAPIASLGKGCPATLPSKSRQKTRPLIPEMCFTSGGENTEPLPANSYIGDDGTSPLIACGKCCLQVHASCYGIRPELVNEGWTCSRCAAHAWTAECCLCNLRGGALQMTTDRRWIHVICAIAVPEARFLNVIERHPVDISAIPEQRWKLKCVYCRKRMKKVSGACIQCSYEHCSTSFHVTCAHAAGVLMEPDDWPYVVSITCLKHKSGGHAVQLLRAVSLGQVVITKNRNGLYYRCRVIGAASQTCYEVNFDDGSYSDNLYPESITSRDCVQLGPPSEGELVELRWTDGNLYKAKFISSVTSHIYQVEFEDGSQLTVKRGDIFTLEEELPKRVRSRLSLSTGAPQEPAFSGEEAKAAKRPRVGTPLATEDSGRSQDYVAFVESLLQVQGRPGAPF
HUNK: Hormonally up-regulated neu tumor-associated kinase (HUNK, Homo sapiens, UniProt P57058)
Sequence of UniProt P57058 (whole entry, looked up): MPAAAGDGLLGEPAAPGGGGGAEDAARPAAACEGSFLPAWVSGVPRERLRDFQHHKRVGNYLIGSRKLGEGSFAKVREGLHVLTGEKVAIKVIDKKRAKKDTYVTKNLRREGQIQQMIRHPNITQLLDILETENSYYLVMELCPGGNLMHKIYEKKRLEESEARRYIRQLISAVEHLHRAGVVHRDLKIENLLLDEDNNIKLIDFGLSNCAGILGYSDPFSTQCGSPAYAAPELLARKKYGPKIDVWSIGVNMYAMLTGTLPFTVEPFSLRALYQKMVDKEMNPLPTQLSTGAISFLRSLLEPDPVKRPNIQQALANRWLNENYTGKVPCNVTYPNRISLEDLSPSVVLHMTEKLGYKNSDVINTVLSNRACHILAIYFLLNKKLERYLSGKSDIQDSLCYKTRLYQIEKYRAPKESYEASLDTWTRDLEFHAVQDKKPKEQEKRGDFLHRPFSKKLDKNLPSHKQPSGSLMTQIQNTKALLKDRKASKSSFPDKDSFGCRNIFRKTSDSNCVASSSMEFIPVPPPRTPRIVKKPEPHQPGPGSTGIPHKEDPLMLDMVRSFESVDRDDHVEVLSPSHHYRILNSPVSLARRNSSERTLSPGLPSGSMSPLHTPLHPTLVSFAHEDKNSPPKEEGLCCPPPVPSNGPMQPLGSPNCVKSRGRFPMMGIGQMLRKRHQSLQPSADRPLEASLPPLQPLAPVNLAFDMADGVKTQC
DYRK2: Dual specificity tyrosine-phosphorylation-regulated kinase 2 (DYRK2, Homo sapiens, UniProt Q92630)
Sequence of UniProt Q92630 (whole entry, looked up): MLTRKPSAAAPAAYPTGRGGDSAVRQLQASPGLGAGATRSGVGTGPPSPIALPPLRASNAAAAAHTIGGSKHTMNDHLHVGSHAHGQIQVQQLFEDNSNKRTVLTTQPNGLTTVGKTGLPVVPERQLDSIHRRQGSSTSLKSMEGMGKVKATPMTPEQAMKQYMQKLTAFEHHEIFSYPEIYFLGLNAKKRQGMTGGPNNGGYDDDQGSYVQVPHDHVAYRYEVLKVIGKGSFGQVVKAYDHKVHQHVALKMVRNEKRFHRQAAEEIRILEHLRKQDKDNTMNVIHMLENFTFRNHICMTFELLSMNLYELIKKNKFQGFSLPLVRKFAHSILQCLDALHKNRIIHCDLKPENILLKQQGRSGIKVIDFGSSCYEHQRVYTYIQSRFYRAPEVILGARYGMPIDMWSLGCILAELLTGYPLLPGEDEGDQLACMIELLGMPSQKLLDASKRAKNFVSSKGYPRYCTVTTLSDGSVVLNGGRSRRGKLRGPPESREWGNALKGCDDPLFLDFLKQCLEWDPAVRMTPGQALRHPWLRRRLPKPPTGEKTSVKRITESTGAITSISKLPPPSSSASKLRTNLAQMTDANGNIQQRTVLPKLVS
MARK3: MAP/microtubule affinity-regulating kinase 3 (MARK3, Homo sapiens, UniProt P27448)
Sequence of UniProt P27448 (whole entry, looked up): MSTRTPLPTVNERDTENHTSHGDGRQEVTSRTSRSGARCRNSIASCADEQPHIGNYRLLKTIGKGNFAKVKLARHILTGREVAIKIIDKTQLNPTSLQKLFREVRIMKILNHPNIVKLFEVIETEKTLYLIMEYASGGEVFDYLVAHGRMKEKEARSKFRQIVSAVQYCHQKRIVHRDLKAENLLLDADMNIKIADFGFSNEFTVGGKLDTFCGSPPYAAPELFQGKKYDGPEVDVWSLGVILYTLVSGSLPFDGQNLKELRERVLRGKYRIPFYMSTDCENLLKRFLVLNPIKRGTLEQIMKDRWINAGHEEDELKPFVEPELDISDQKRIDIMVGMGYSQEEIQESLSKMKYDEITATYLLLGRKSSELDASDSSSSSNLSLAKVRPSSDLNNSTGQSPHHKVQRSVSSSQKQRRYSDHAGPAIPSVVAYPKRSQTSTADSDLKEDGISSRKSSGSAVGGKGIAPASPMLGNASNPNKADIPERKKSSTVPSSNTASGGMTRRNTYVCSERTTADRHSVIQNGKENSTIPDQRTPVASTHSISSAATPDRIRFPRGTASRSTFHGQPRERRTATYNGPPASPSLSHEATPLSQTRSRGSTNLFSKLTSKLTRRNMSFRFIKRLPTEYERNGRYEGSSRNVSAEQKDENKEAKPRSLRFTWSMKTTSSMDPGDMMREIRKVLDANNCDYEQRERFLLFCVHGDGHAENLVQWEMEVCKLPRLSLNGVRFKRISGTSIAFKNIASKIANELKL
Sequence of UniProt P09769 (whole entry, looked up): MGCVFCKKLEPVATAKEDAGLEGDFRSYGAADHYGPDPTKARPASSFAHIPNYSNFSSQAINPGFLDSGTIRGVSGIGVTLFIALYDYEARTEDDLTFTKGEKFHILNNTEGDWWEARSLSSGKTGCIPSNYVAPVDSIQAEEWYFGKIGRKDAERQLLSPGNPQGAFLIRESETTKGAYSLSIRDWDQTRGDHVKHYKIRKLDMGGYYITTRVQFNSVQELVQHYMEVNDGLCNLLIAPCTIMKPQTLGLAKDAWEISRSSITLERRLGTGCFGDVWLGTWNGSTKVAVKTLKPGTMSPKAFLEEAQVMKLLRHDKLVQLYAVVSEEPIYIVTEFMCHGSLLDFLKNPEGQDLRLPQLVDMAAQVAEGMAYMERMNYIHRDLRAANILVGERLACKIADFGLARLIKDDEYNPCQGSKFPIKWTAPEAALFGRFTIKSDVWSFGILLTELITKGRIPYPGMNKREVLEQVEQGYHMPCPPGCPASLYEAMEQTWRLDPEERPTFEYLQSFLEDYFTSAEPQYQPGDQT

SMILES = NC(=O)c1cc(-n2c(CCC(=O)O)nc3ccccc32)cs1; tested on = USP16 ZnF-UBD domain; endpoint = Kd; result = > 1000 µM
SMILES = COC(=O)C(C(=O)C(=O)Nc1ccc([N+](=O)[O-])cc1[N+](=O)[O-])c1nc2ccc(Cl)cc2[nH]c1=O (centres unmarked); tested on = KDM4B; conditions = concentration not given; endpoint = remaining activity; result = 49%
SMILES = O=C(O)CCc1cnccn1; tested on = USP16 ZnF-UBD domain; endpoint = Kd; result = > 1000 µM
SMILES = COc1cc(N2CCN(C)CC2)ccc1Nc1nc(N)n(C(=S)NCc2c(Cl)cccc2Cl)n1; tested on = HUNK; test = enzyme activity; conditions = 10 µM; scale = reference: control; endpoint = remaining activity; result = 0%
SMILES = COc1cc(Nc2ncc3c(n2)-c2ccc(Cl)cc2C(c2c(F)cccc2OC)=NC3)ccc1C(=O)O; tested on = NTRK2; test = kinase activity; conditions = 1 µM; endpoint = remaining activity; result = 22%
SMILES = COc1cc(N2CCN(C)CC2)ccc1Nc1nc(N)n(C(=O)NCc2c(Cl)cccc2Cl)n1; tested on = DYRK2; test = enzyme activity; conditions = 10 µM; scale = reference: control; endpoint = remaining activity; result = 24%
SMILES = O=C(O)c1ccc(Nc2ncc3c(n2)-c2ccc(Cl)cc2C(c2c(F)cccc2F)=NC3)cc1; tested on = BrSK2(h); test = kinase activity; conditions = 1 µM; endpoint = remaining activity; result = 99%
SMILES = CC(C)Oc1cc(N2CCN(C)CC2)ccc1Nc1nc(N)n(C(=O)NCc2ccccc2S(=O)(=O)C(C)C)n1; tested on = Insulin receptor (INSR, Homo sapiens, UniProt P06213); test = enzyme activity; conditions = 10 µM; scale = reference: control; endpoint = remaining activity; result = 4%
SMILES = C/C(=N/Nc1ccc([N+](=O)[O-])cc1[N+](=O)[O-])c1ccccc1; tested on = KDM4B; conditions = concentration not given; endpoint = remaining activity; result = 52%
SMILES = C=CC(=O)N1CCC[C@@H](n2nc(-c3ccc(Oc4ccccc4)cc3)c3c(N)ncnc32)C1; tested on = FGR (Homo sapiens, UniProt P09769); test = kinase activity, inhibitor, HotSpot radiometric; conditions = 100 nM, added: ATP 10 µM; endpoint = remaining activity; result = 6.7 ± 0.1%
SMILES = COc1cc(N2CCN(C)CC2)ccc1Nc1nc(N)n(C(=O)NCc2ccccc2S(=O)(=O)C(C)C)n1; tested on = HUNK; test = enzyme activity; conditions = 10 µM; scale = reference: control; endpoint = remaining activity; result = 0.85%
SMILES = CNc1ncc2c(/C=C/C(=O)N3CCC(OC)CC3)nn(Cc3cccc(C(F)(F)F)c3)c2n1; tested on = ACVRL1 (Homo sapiens, UniProt P37023); test = kinase activity, inhibitor; conditions = 1 µM; scale = reference: untreated control; endpoint = remaining activity; result = 92%
SMILES = O=C1NC(=O)/C(=C/c2ccc(-c3ccc(F)cc3O)o2)S1; tested on = TAOK1 (Homo sapiens, UniProt Q7L7X3); test = enzyme activity; conditions = 10 µM; endpoint = remaining activity; result = 18%
SMILES = C[C@@H](Oc1ccc(S(C)(=O)=O)cc1C(=O)N1C[C@@H]2C[C@]2(c2cc(C(F)(F)F)on2)C1)C(F)(F)F; tested on = SLC6A9 (Homo sapiens, UniProt P48067, L476T); test = glycine uptake, inhibitor, [3H]glycine uptake; conditions = 0.004 µM, L422T mutant, log concentration 4, added: [3H]glycine; scale = reference: no inhibitor; endpoint = remaining activity; result = 38%
SMILES = Cc1cnc(NC2CCOCC2)nc1-n1cnc(C(=O)NC(CN)c2cc(F)cc(Cl)c2)c1 (centres unmarked); tested on = SRC (Homo sapiens, UniProt P12931); test = kinase activity, radiometric; conditions = 1 µM; endpoint = remaining activity; result = 94%
SMILES = COc1cc(F)ccc1-c1ncnc(Nc2cccc(C[S@](C)(=N)=O)c2)n1; tested on = DYRK2; test = kinase activity; conditions = 10 µM, added: 10 µM ATP; endpoint = remaining activity; result = 88%
SMILES = C=CC(=O)N1CCC[C@@H](n2nc(-c3ccc(Oc4ccccc4)cc3)c3c(N)ncnc32)C1; tested on = DYRK2; conditions = 0.1 µM; endpoint = remaining activity; result = 97.3%
SMILES = N[C@@H]1CC[C@@H](c2ccc(Cl)c(Cl)c2)c2ccccc21; tested on = SLC6A3 (Homo sapiens, UniProt Q01959, F326A); test = dopamine uptake; conditions = 0.004 µM, 0.03333 h, F326A mutant, added: [3H]dopamine; scale = reference: no inhibitor; endpoint = remaining activity; result = 40.8%
SMILES = COc1cc(-c2cncc3c2CN(C)Cc2cc(N4CCNCC4)ccc2-3)cc(OC)c1OC; tested on = MARK3; test = kinase activity; conditions = 1 µM, human enzyme, added: ATP 10 µM; scale = reference: DMSO control; endpoint = remaining activity; result = 111%
SMILES = O=C(NC1CCC1)c1ccc2nc(-c3cccc(NS(=O)(=O)NCCN4CCCCC4)c3)cn2c1; tested on = MAP3K6 (Homo sapiens, UniProt O95382); test = enzyme activity; conditions = 10 µM; endpoint = remaining activity; result = 78%
SMILES = Nc1nc2c(ncn2[C@H]2C[C@H](O)[C@@H](CO)O2)c(=O)[nH]1; test = binding, MIDAS equilibrium dialysis LC-MS; test system = A2AR-BRIL thermostabilized; conditions = concentration not given; scale = reference: no-protein control; endpoint = log2 fold change; result = 0.142
SMILES = Fc1ccc(-c2nc3cc(F)ccn3c2-c2ccncc2)cc1; tested on = CSNK1A1 (Homo sapiens, UniProt P48729); test = kinase activity, ADP-Glo; conditions = 1.176 µM; scale = reference: untreated; endpoint = remaining activity; result = 25.9%
SMILES = CN(C)CC#Cc1ccc2[nH]c3c(c2c1)-c1nc(N)ncc1CCC3; tested on = MARK3; test = kinase activity, inhibitor, radiometric; conditions = 1 µM, added: ATP at Km; endpoint = remaining activity; result = 70%
SMILES = O=C(O)CCCC(=O)O; test = binding, MIDAS equilibrium dialysis LC-MS; test system = A2AR-BRIL thermostabilized; conditions = concentration not given; scale = reference: no-protein control; endpoint = log2 fold change; result = -0.383
SMILES = OCCS; tested on = Alpha-L-fucosidase AlfC (Lacticaseibacillus rhamnosus, UniProt A0A809N2S1); test = inhibitor; conditions = 1000 µM, 5 min; scale = reference: untreated; endpoint = remaining activity; result = 97.3 ± 0.5%
SMILES = Cc1cc(Nc2cc(N3CCN(C)CC3)nc(Sc3ccc(NC(=O)C4CC4)cc3)n2)[nH]n1; tested on = PRKCH (Homo sapiens, UniProt P24723); test = kinase activity, KinaseProfiler; conditions = 0.03 µM, species human; scale = reference: control; endpoint = remaining activity; result = 98%

Excerpt of the above:
SMILES = COc1cc(N2CCN(C)CC2)ccc1Nc1nc(N)n(C(=O)NCc2c(Cl)cccc2Cl)n1; tested on = DYRK2; test = enzyme activity; conditions = 10 µM; scale = reference: control; endpoint = remaining activity; result = 24%
SMILES = O=C(O)c1ccc(Nc2ncc3c(n2)-c2ccc(Cl)cc2C(c2c(F)cccc2F)=NC3)cc1; tested on = BrSK2(h); test = kinase activity; conditions = 1 µM; endpoint = remaining activity; result = 99%
SMILES = CC(C)Oc1cc(N2CCN(C)CC2)ccc1Nc1nc(N)n(C(=O)NCc2ccccc2S(=O)(=O)C(C)C)n1; tested on = Insulin receptor (INSR, Homo sapiens, UniProt P06213); test = enzyme activity; conditions = 10 µM; scale = reference: control; endpoint = remaining activity; result = 4%
SMILES = C/C(=N/Nc1ccc([N+](=O)[O-])cc1[N+](=O)[O-])c1ccccc1; tested on = KDM4B; conditions = concentration not given; endpoint = remaining activity; result = 52%
